Measurements collected from several papers.
“And” joins repeats or separate records; there may be more than shown.
Target: PAS domain-containing serine/threonine-protein kinase (PASK, Homo sapiens, UniProt Q96RG2)
Chain of UniProt Q96RG2 (whole entry, looked up): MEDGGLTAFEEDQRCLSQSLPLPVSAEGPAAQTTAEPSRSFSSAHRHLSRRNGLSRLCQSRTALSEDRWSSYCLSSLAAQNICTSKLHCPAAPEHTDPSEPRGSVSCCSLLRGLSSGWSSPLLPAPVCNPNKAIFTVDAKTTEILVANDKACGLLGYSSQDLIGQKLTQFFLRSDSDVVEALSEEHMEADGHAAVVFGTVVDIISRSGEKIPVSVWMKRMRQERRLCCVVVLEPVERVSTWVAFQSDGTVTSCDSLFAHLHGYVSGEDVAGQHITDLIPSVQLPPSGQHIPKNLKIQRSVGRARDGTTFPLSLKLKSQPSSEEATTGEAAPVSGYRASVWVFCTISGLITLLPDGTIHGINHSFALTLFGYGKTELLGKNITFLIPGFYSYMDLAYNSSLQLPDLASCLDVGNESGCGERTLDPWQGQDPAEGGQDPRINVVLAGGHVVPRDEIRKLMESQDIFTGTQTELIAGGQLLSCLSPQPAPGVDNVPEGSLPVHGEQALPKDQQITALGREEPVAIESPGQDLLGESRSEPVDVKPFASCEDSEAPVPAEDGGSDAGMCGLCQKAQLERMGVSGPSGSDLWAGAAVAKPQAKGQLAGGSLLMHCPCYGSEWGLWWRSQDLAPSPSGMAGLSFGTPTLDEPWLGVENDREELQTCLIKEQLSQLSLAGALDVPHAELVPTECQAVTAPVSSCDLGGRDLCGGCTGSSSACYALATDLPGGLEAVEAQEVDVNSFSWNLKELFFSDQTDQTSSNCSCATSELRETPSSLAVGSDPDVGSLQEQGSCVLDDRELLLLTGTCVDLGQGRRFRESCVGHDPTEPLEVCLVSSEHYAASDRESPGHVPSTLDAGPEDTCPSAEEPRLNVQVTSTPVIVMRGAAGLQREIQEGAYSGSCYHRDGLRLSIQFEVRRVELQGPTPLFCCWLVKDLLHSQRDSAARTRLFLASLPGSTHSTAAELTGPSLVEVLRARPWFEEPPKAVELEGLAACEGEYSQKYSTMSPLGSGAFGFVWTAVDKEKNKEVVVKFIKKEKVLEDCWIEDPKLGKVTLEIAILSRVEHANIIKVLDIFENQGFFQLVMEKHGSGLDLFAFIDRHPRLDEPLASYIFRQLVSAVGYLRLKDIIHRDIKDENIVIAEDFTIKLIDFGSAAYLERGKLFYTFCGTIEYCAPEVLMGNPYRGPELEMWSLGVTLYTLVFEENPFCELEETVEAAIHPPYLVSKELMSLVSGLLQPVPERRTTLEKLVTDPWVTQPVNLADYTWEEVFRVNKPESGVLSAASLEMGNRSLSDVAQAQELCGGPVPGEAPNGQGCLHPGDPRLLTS

COc1ccc(NC(=O)Nc2ccc3c(c2)C(=O)N(C(C)CO)CC(C)C(CN(C)Cc2ccc4c(c2)OCO4)O3)cc1 (stereo not shown)
remaining activity (kinase activity, KinaseProfiler; 0.03 µM, species human; reference: control): 55%

NC(=O)[C@@H](O)C[C@H]1CCc2sc3ncnc(O[C@H]4CC[C@H](N5CCOCC5)CC4)c3c21
inhibition (enzyme activity, inhibitor; 10 µM): 1%

C=CC(=O)Nc1cccc(-c2cnc3[nH]cc(C(=O)NC(C)(C)C)c3n2)c1
inhibition (enzyme activity, inhibitor; 0.1 µM): 1%

COCC12C(=O)NC3C4(C(OC)CC1O)C1CC5(O)C(OC)C(O)C(OC(C)=O)(C1C5OC(=O)c1ccccc1)C3(O)C(OC)C24 (stereo not shown)
remaining activity (kinase activity, inhibitor, ProQinase kinase profiling; 25 µM; reference: control): 98% and 99%

Cc1cccc(O[C@H]2CCC[C@@H](C(C)CNCc3ccncc3)C2)c1 (relative stereo)
inhibition (enzyme activity, inhibitor; 1 µM): 0%

COc1c(OCCCN2CCOCC2)ccc2c1N=C(NC(=O)c1cnc(N)nc1)N1CCN=C21
remaining activity (kinase activity, inhibitor; 1 µM; reference: untreated control): 127%

CNC(=O)C[C@H](Cc1ccc(C#N)cc1)NC(=O)c1cc(-c2ccc(CN[C@H](C)c3ccc(C)cc3)o2)ccc1Cl
activity vs control (enzyme activity, inhibitor; 1 µM): 101%

CN1CCN(Cc2ccc(-c3ccc(CO[C@H]4CCC[C@@H]4NC(=O)c4cc(-c5cnn(C)c5)cnc4N)cc3)cc2)CC1
inhibition (enzyme activity, inhibitor; 0.1 µM): 1%

CCCCCC=CC=C1C(=O)C=CC1CC=CCCCC(=O)O (stereo not shown)
isoTOP-ABPP ratio (IA-probe cysteine labelling, covalent modifier, competitive isoTOP-ABPP; Ramos proteome; 100 µM, in vitro; reference: DMSO over compound, higher = stronger blockade): 15

Cc1nc2c(F)cc(-c3nc(Nc4ccc(CNC(=O)CCCCCCC(=O)NO)cc4)ncc3F)cc2n1C(C)C
inhibition (enzyme activity, inhibitor; 1 µM): 70%

Excerpt of the above:
Cc1cccc(O[C@H]2CCC[C@@H](C(C)CNCc3ccncc3)C2)c1 (relative stereo)
inhibition (enzyme activity, inhibitor; 1 µM): 0%

CN1CCN(Cc2ccc(-c3ccc(CO[C@H]4CCC[C@@H]4NC(=O)c4cc(-c5cnn(C)c5)cnc4N)cc3)cc2)CC1
inhibition (enzyme activity, inhibitor; 0.1 µM): 1%
